Experimental data collected from several papers.
Numbered parts are unrelated; each lists some results of a single study. Positions count from the first letter of the parent shown.

Block 1 — technique: aptamer microarray, sandwich; molecule type: DNA with 2'F-ANA; medium: in vitro; tested at: 200 nM; with: Cy3 exosite-II aptamer, 400 nM; direction: higher = stronger binding; endpoint: mean fluorescence intensity; oligonucleotide: GGTTGGTGTGGTTGG
Target: Prothrombin, mature alpha-thrombin (F2, Homo sapiens, UniProt P00734)
Notes: whole 15-mer aptamer, many near background
2'F-ANA at 2 3 4 6 8 11 12 13 14: 259 a.u.
2'F-ANA at 3 5 6 7 8 9 10 11: 53.2 a.u.
2'F-ANA at 1 3 7 11 12 14 15: 124 a.u.
2'F-ANA at 3 4 6 8 11 14: 290 a.u.
2'F-ANA at 1 2 3 4 7 8 10 11 12 14 15: 50.2 a.u.
2'F-ANA at 2 8 10 11 12 13 14 15: 83.9 a.u.
2'F-ANA at 3 5 8 11 12 13 15: 190 a.u.
2'F-ANA at 6 7 9 10 11 12 14: 141 a.u.

Block 2 — technique: DHFR PCA, deep sequencing; medium: yeast; with: (+)-ABA 200 µM; relative to: wild-type fitted maximum; direction: higher = stronger binding; endpoint: relative binding score
Target: ABI1, truncated, D143A, DHFR fusion (Arabidopsis thaliana)
Notes: methotrexate growth selection, single substitutions
Starting sequence: PYL1, truncated, DHFR fusion (Arabidopsis thaliana); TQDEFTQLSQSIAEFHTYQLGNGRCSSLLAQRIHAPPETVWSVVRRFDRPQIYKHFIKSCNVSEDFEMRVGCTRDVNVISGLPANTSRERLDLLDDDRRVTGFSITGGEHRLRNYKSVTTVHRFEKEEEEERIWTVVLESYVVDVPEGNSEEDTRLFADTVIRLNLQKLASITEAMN; partner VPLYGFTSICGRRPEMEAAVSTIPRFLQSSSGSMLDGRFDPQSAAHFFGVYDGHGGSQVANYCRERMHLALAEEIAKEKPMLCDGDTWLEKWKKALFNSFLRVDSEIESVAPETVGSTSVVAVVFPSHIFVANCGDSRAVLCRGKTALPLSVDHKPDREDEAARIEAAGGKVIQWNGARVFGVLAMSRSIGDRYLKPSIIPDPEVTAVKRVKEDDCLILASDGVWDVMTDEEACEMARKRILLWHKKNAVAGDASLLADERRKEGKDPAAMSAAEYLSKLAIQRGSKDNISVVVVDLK
V118H: 95.3%
T120I: 7.87%
R155E: 54.4%
S63W: 82.8%
S59K: 100%
L8H: 86.5%
Q51G: 86.2%
E147H: 96%

Mixed results
P1: viral docking peptide; CKVKRKLFGSENI; partner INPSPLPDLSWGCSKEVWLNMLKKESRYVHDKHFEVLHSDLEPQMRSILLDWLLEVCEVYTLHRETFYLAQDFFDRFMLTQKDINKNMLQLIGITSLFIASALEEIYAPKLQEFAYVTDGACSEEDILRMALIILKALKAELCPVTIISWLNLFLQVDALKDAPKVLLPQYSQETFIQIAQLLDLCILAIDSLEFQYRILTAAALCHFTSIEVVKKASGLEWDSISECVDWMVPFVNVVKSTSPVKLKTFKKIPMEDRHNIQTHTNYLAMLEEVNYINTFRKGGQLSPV
PhoQ, residues 284 288 289 292 302 303 SIHMAM  fold induction (PhoP, residues 12 14 15 18 19 STWGI (Escherichia coli, UniProt P23836); Sort-seq, refers to: YFP reporter; E. coli; PhoQ-PhoP variant library, with: 10 µM Mg2+; relative to: high Mg2+ state, higher = stronger signaling): 2.79
P1 K4A  normalised enrichment score (CCNE2, cyclin fold, Cln2 fusion (human); yeast growth competition, sequencing; yeast; strong parent motif; relative to: not given, higher = stronger binding): 1.9

Excerpt of the above (block 2):
Q51G: 86.2%
